Assay results collected from several papers.
Each line is one published result; not all experiments were run side by side. “And” joins repeats or separate records; there may be more than shown. ± marks the error that the study gave.
P4HB: Protein disulfide-isomerase (P4HB, Homo sapiens, UniProt P07237)
Sequence of UniProt P07237 (whole entry, looked up): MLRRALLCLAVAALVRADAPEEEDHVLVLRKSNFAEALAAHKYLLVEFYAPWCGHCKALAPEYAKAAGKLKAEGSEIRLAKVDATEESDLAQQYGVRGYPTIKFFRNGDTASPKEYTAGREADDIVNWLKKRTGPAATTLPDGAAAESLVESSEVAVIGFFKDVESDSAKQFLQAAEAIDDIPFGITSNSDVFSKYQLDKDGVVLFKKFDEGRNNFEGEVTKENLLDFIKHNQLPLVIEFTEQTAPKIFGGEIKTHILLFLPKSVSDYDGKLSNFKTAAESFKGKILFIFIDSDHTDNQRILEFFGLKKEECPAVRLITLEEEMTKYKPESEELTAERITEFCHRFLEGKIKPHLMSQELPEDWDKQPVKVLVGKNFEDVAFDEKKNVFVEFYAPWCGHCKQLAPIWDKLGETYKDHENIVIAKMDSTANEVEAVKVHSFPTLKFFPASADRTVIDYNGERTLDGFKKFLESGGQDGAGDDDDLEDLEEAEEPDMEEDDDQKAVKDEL
CPL: CPL (Toxoplasma gondii, UniProt Q6DMN0)
HDAC6: Protein deacetylase HDAC6 (HDAC6, Homo sapiens, UniProt Q9UBN7)
Sequence of UniProt P00374 (whole entry, looked up): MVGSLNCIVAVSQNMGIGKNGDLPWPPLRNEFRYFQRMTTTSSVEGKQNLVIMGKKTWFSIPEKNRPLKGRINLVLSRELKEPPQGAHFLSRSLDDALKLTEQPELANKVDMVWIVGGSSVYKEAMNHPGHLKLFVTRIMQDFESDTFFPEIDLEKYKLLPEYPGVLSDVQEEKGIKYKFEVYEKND
Sequence of UniProt Q9UBN7 (whole entry, looked up): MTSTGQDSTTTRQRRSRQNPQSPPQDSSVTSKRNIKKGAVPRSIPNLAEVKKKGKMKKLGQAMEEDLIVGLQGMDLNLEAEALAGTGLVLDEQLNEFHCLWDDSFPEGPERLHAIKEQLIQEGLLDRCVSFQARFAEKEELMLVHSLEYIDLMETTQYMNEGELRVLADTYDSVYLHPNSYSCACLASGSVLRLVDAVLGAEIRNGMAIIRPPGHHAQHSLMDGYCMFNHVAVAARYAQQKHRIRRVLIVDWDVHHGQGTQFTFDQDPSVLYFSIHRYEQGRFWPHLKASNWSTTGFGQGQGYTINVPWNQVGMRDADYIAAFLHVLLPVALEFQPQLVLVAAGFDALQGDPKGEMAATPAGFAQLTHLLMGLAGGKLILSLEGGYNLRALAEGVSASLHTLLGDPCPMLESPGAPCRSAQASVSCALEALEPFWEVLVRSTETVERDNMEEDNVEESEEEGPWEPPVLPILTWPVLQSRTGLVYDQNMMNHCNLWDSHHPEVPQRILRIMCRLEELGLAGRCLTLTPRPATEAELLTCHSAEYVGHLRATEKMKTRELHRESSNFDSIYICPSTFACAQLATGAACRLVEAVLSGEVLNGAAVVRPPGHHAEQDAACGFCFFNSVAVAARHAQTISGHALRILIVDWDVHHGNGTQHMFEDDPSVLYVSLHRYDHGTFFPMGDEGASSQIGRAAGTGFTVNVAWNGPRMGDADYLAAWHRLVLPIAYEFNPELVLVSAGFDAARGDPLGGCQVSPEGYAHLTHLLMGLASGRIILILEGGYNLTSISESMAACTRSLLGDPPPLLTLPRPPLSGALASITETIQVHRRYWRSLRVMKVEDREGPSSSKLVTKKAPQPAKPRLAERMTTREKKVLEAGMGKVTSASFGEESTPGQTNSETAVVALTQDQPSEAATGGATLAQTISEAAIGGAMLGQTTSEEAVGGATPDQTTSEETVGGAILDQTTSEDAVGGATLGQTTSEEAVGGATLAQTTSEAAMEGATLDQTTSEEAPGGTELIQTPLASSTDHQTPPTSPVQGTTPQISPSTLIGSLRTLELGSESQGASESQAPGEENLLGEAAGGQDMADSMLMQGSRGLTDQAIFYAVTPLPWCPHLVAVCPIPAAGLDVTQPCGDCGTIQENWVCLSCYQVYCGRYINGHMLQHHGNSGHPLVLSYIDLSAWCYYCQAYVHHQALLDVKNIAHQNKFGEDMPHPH
Sequence of UniProt P05979 (whole entry, looked up): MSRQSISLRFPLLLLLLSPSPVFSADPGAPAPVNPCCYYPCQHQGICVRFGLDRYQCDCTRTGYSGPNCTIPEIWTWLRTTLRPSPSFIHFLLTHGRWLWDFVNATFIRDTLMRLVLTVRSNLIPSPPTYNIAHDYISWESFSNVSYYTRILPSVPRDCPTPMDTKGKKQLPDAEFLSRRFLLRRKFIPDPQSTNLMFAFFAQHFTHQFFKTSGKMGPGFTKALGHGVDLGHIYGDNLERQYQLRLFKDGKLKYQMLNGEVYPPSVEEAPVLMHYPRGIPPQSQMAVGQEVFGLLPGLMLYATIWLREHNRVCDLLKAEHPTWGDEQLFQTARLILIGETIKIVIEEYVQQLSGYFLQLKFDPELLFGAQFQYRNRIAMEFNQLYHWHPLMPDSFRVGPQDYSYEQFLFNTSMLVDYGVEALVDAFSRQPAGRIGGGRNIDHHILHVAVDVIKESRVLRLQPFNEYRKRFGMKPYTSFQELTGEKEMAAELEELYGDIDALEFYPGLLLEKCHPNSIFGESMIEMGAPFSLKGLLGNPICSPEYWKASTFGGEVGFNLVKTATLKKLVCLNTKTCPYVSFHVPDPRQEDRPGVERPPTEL
Sequence of UniProt P29353 (whole entry, looked up): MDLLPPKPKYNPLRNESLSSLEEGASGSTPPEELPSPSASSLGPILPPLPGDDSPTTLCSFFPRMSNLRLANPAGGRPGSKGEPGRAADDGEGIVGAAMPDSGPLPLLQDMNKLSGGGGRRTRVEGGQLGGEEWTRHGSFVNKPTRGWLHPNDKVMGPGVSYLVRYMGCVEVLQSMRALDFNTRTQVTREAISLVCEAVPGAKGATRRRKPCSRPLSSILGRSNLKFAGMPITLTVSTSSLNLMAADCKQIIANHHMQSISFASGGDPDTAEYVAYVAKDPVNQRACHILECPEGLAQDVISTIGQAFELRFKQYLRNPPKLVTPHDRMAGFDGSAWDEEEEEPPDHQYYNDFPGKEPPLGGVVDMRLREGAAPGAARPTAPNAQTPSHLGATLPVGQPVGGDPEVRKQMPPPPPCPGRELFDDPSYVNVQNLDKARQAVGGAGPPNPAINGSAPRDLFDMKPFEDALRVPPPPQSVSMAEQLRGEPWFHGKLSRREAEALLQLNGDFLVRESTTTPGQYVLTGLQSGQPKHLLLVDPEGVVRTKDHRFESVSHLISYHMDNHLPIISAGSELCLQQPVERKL
Sequence of UniProt P10275 (whole entry, looked up): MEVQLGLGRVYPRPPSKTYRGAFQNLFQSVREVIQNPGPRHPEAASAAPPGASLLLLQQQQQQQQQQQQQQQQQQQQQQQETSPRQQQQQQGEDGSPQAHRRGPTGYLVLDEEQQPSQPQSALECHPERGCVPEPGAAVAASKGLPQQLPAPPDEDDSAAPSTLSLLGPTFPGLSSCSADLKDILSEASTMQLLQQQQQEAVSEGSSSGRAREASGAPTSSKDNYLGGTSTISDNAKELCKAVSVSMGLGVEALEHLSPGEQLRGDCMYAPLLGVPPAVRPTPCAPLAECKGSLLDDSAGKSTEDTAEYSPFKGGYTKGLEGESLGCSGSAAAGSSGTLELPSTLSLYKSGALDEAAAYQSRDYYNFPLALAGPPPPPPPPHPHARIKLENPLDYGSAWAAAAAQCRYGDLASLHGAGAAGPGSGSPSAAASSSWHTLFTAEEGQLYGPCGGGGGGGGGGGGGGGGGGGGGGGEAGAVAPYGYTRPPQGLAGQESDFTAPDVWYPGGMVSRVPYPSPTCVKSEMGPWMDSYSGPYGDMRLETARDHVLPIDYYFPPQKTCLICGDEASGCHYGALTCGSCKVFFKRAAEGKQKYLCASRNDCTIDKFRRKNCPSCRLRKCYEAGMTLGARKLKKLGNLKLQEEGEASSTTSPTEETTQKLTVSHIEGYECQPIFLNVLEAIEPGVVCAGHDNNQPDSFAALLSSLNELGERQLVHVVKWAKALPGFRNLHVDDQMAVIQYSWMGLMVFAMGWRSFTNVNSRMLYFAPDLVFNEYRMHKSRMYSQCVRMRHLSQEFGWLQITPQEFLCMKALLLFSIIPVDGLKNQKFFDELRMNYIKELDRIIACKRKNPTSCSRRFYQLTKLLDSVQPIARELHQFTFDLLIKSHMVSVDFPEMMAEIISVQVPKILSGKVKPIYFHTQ
Sequence of UniProt O15393 (whole entry, looked up): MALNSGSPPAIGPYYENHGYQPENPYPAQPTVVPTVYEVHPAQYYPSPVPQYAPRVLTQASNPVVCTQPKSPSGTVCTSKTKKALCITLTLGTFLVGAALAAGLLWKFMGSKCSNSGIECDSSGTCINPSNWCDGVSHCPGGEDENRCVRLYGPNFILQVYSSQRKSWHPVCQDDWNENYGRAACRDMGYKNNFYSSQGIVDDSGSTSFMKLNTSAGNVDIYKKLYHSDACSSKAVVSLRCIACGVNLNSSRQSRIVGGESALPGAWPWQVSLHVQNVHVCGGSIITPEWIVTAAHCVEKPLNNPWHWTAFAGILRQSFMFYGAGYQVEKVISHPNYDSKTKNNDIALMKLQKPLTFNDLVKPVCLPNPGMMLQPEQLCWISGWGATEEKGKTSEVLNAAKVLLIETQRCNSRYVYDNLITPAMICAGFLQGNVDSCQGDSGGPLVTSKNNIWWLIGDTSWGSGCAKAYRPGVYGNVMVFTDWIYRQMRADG
Sequence of UniProt P49760 (whole entry, looked up): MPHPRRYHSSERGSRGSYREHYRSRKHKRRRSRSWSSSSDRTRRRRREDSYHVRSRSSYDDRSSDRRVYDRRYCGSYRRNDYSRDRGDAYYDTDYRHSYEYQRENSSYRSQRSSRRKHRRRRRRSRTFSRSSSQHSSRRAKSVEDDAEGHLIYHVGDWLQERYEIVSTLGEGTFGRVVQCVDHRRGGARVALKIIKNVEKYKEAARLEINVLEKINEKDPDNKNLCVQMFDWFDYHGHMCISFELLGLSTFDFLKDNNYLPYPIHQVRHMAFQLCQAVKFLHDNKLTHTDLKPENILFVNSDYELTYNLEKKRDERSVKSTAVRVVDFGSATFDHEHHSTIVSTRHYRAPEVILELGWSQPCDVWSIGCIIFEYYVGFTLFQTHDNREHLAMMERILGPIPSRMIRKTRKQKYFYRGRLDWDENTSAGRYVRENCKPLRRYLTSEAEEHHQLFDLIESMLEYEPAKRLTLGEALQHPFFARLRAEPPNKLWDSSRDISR

Compound	target	assay	test system	setting	IC50
COC(=O)C1CN1S(=O)(=O)c1ccc(F)cc1F (centres unmarked)	P4HB	enzyme activity, inhibitor, absorbance	–	pH 7.6	5200 nM
CN(CCO)c1ccc(/C=C/C(=O)C(c2ccccc2)c2ccccc2)cc1	PTGS2 (Homo sapiens, UniProt P35354)	enzyme activity, inhibitor, ELISA	–	–	84700 nM
Fc1ncc(C2CC3CCC2N3)cc1-c1cccnc1 (racemic)	Chrna7 (Rattus norvegicus, UniProt Q05941)	ion current, two-electrode voltage clamp	–	oocytes	99000 nM
CC(C)C[C@@H]1NC(=O)[C@H](CCCCN)NC(=O)[C@H](CC(C)C)NC(=O)[C@@](C)(NC(=O)[C@H](Cc2ccccc2)NC(=O)[C@H](Cc2ccc(O)cc2)NC(=O)[C@H](C)NC(=O)[C@@H](NC(=O)c2ccc3c(c2)C(=O)OC32c3ccc(O)cc3Oc3cc(O)ccc32)[C@@H](C)O)CCCC=CCCC[C@@](C)(C(=O)NCC(=O)N[C@@H](CCCNC(=N)N)C(=O)N[C@@H](Cc2c[nH]c3ccccc23)C(N)=O)NC1=O	Gag-Pol polyprotein, integrase (gag-pol, Human immunodeficiency virus type 1 group M subtype B, UniProt P04585)	integrase 3'-processing, inhibitor	–	–	5000 ± 1000 nM
C/C(=N\OCCCN1CCCCC1)c1ccc(C(F)(F)F)cc1	CHRM2 (Homo sapiens, UniProt P08172)	inositol phosphate, antagonist	–	–	1060 nM
C[C@H]1Oc2c(c(=O)oc3c2ccc2ccccc23)[C@@H]1C	SYK (Homo sapiens, UniProt P43405)	enzyme activity, inhibitor, ADP detection	–	–	46000 nM
CC[C@H](C)[C@H](NC(=O)[C@@H](N)CC(=O)O)C(=O)N[C@H]1CSC(=O)[C@H](Cc2ccccc2)NC(=O)[C@H](Cc2ccc(O)cc2)NC(=O)[C@H](C)NC(=O)[C@H](CC(N)=O)NC1=O	Accessory gene regulator protein C (Staphylococcus aureus, UniProt O33590)	–	–	–	36.6 nM
C=CCOC(=O)NCCCC[C@H](NC(=O)[C@H](Cc1ccc(O)cc1)NC(=O)CNC(=O)CNC(=O)[C@@H](NC(=O)[C@H](CO)NC(=O)[C@@H]1CCCN1C(=O)[C@H](C)NC(=O)[C@H](CO)NC(=O)[C@H](CCCC)NC(=O)[C@H](CCCNC(=N)N)NC(=O)[C@H](C)NC(=O)[C@H](C)NC(=O)[C@H](CCCCN)NC(C)=O)[C@@H](C)O)C(=O)NN	EZH2 (Homo sapiens, UniProt Q15910)	enzyme activity, inhibitor, radiometric	–	–	3300 nM
CC[C@H](C)[C@H](NC(=O)[C@H](CC(N)=O)NC(=O)[C@H](CC(N)=O)NC(=O)[C@@H](N)CCCNC(N)=O)C(=O)N1C[C@@H](n2cc(-c3ccc(N)cc3)nn2)C[C@H]1C(=O)N[C@H](Cc1c[nH]c2ccccc12)C(=O)N[C@@H](CO)C(N)=O	Envelope glycoprotein gp160, gp120 (env, Human immunodeficiency virus type 1 group M subtype B, UniProt P35961)	–	HIV-1	–	> 100000 nM
CN[C@@H]1[C@H](O)[C@H](NC)[C@H]2O[C@]3(O)[C@H](O[C@@H]2[C@H]1O)O[C@H](C)C[C@@]3(O)CNCc1ccc(Cl)cc1	Small ribosomal subunit protein uS5, 70S ribosome (rpsE, Mycolicibacterium smegmatis, UniProt A0QSG6)	translation, inhibitor, in vitro translation, luciferase	Mycobacterium smegmatis ribosomes	–	0.3 µg/mL
N#Cc1nc(N2CCOCC2)nc(N(CCC2CCNCC2)Cc2ccc(F)cc2)n1	CPL	enzyme activity, inhibitor, Z-L-R-AMC hydrolysis fluorescence	–	–	326 nM
CC(C)C[C@@H]1NC(=O)[C@@H](CCCNC(=N)N)NC(=O)[C@H](CCCCN)NC(=O)[C@H](CC(=O)O)NC(=O)[C@H](CCCCN)NC(=O)[C@H](CO)NC1=O	Disintegrin and metalloproteinase domain-containing protein 8 (Homo sapiens, UniProt P78325)	CD23 shedding, inhibitor, ELISA	COS-7, co-transfected with CD23	–	2430 ± 87 nM
COc1ccc(S(=O)(=O)N2CCN(c3nc4ccc(Cl)cc4o3)CC[C@H]2C)cc1	HCRTR2 (Homo sapiens, UniProt O43614)	calcium signal, antagonist, fluorescence	–	–	5110 nM
Cc1[nH]c2ccccc2c1C(c1ccccc1)C(C#N)C#N (centres unmarked)	Cocaine esterase (CES2, Homo sapiens, UniProt O00748)	enzyme activity, inhibitor	human liver microsomes	pH 7.4, 37 °C, together with: fluorescein diacetate	2980 ± 530 nM
O=C(CCCCCCC(=O)Nc1ccc(N=Nc2ccccc2)cc1)NO	HDAC3 (Homo sapiens, UniProt O15379)	enzyme activity, inhibitor	–	cis isomer, irradiated	335 ± 103 nM
CC(C)(C)n1ccc(C(=O)N2CCCN(c3nc4ccccc4s3)CC2)c1	hh, C-terminal autoprocessing domain (Drosophila melanogaster, UniProt Q02936)	inhibitor, FRET	–	together with: C-H-Y reporter 0.1 µM and cholesterol 1.5 µM	1200 nM
COC(=O)C=CCCC(NC(=O)c1ccncc1C(=O)O)C(=O)NC(C(=O)N1CC(=O)CC1C(=O)NC(C(=O)NC(C(N)=O)C1CCCCC1)C1CCCCC1)C(C)(C)C (centres unmarked)	F13A1 (Homo sapiens, UniProt P00488)	transamidase activity, inhibitor	–	together with: dansylcadaverine, N,N-dimethylcasein	24 ± 1.5 nM
COc1ccc(N=Nc2cccc(NC(=O)CCCCCCC(=O)NO)c2)cc1	HDAC6	enzyme activity, inhibitor	–	trans isomer	394 ± 83 nM
CCCCc1ccc(S(=O)(=O)N2CC2C(=O)OC)cc1 (centres unmarked)	P4HB	insulin reduction, inhibitor, turbidity	–	–	80 to 85 nM

Compound	target	assay	test system	setting	IC50
Cc1cc(Nc2nc(C[C@@]3(C(=O)O)CCN(Cc4cccc(Cl)c4F)[C@H](C)C3)cc(C)c2F)n[nH]1	Aurora kinase A (AURKA, Homo sapiens, UniProt O14965)	enzyme activity, inhibitor	–	–	0.327 nM
C=CC1CN2CCC1CC2C(O)c1c(-c2ccc(N=Nc3ccccc3)cc2)cnc2ccc(OC)cc12 (centres unmarked)	SCN5A (Homo sapiens, UniProt Q14524)	sodium current, blocker, whole-cell patch clamp	HEK-293T	pH 7.3, cis isomer, together with: light 365 nm	11800 nM
NC1=NC2(CCCCC2)N(c2ccc(OCc3cn(CCCCOc4ccc(CCC(=O)O)c(O)c4)nn3)cc2)C(N)=N1	DHFR (Homo sapiens, UniProt P00374)	enzyme activity, inhibitor	–	–	1730 nM and 1700 nM
O=C(CCCCCCC(=O)Nc1ccccc1N=Nc1ccccc1)NO	HDAC6	enzyme activity, inhibitor	–	trans isomer	335 ± 105 nM
CC(C)CCN(CCCc1ccccc1)c1nc(C#N)nc(N2CCOCC2)n1	CPL	enzyme activity, inhibitor, Z-L-R-AMC hydrolysis fluorescence	–	–	230 nM
C=CCCNC(=O)[C@H](CO)NC(=O)[C@H](CC(C)C)NC(=O)CN(CC=C)C(=O)[C@H](CCC(N)=O)NC(=O)[C@H](Cc1ccc(OP(=O)(O)O)cc1)NC(C)=O	SHC-transforming protein 1, SH2 (Homo sapiens, UniProt P29353)	ligand displacement, FP	–	–	8000 nM
CCCCCCc1ccc(Nc2ccccc2C(=O)O)cc1	Androgen receptor (AR, Homo sapiens, UniProt P10275)	reporter gene, antagonist, MMTV-Luc reporter	MDA-kb2	20 h, together with: 0.2 nM DHT (EC50)	7200 ± 3900 nM
CC(C)C[C@H](NC(=O)OCc1ccccc1)C(=O)N[C@H](C=O)C[C@H]1CCNC1=O	Genome polyprotein, 3C protease (Human enterovirus D68, UniProt Q68T42)	3C protease activity, inhibitor, FRET	–	–	170 ± 20 nM
O=C(O)c1cccc(CP(=O)(O)O)n1	Beta-lactamase L1 (Stenotrophomonas maltophilia, UniProt P52700)	enzyme activity, inhibitor, absorbance	–	with preincubation	1480 nM
Cc1cccc2c1NC(=O)C2=Cc1ccc(-c2cccc(C(=O)N3CCCN(C)CC3)c2)o1 (mixture of isomers)	PIM2 (Homo sapiens, UniProt Q9P1W9)	enzyme activity, inhibitor	–	–	5000 nM
NCCCC[C@@H]1NC(=O)[C@H](Cc2c[nH]c3ccccc23)NC(=O)[C@H](CCC(N)=O)NC(=O)[C@H](CC(N)=O)NC(=O)[C@@H]2CCCN2C(=O)[C@@H](N)CSSC[C@@H](C(N)=O)NC(=O)[C@H](Cc2ccc(O)cc2)NC(=O)[C@H](CO)NC1=O	WD repeat-containing protein 5, WBM site (WDR5, Homo sapiens, UniProt P61964)	binding, inhibitor	–	–	> 100000 nM
O=C(Nc1ccccc1)c1ccccc1O	HDAC9 (Homo sapiens, UniProt Q9UKV0)	enzyme activity, inhibitor, fluorescence	–	–	> 10000 nM
Cc1ccccc1/C=C/C(=O)C(c1ccccc1)c1ccccc1	PTGS1 (Ovis aries, UniProt P05979)	enzyme activity, inhibitor, ELISA	–	–	58500 nM
CN(C)CCCOc1ccc(C2Sc3ccccc3NC3=C2C(=O)c2ccccc23)cc1 (racemic)	PFF0160c (Plasmodium falciparum, UniProt Q08210)	enzyme activity, inhibitor, absorbance	–	–	> 20000 nM
N=C(N)SCc1ccc(B(O)O)cc1	TMPRSS2 (Homo sapiens, UniProt O15393)	enzyme activity, inhibitor, fluorescence	–	–	1440 nM
CC[C@@H]1C(=O)N(C)c2cnc(Nc3ccc(C(=O)NCCCC[C@H](NC(=O)COCCOCCNC(=O)COCCOCCNC(=O)COCCOCCNC(=O)COCCOCCNC(=O)[C@@H](NC(=O)[C@H](CO)NC(=O)[C@H](Cc4cncn4CCCCCCCCc4ccccc4)NC(=O)[C@H](CC(C)C)NC(=O)[C@@H]4CCCN4C(C)=O)[C@@H](C)OP(=O)(O)O)C(N)=O)cc3OC)nc2N1C1CCCC1	CLK2 (Homo sapiens, UniProt P49760)	enzyme activity, inhibitor	–	–	60 nM
CC(C)(C)CCN(Cc1ccc(F)cc1)c1nc(C#N)nc(N2CCOCC2)n1	CPL	enzyme activity, inhibitor, Z-L-R-AMC hydrolysis fluorescence	–	–	68 nM
COc1cc(-c2nn(C3CCC(N4CCN(C)CC4)CC3)c3ncnc(N)c23)ccc1NC(=O)OCc1ccccc1 (centres unmarked)	LIM domain kinase 1 (LIMK1, Homo sapiens, UniProt P53667)	enzyme activity, inhibitor	–	–	880 nM
CCCCC[C@@H]1OC(=O)[C@@H](C)N(C)C(=O)[C@H](CCCCC)OC(=O)[C@@H](C)N(C)C(=O)[C@H](CCCCC)OC(=O)[C@@H](C)N(C)C(=O)[C@H](CCCCC)OC(=O)[C@@H](C)N(C)C1=O	ryanodine receptor 2 (Sus scrofa, UniProt A0A5G2R1W3)	channel open probability, inhibitor, lipid bilayer single-channel	–	+40 mV, together with: 0.1 µM Ca2+, 2 mM ATP	~200 nM
